Measured values of several laboratories.
Each line is one published result; not all experiments were run side by side. Numbers after ± are the reported error.
USP5 ZnF-UBD domain: Ubiquitin carboxyl-terminal hydrolase 5, ZnF-UBD domain (USP5, Homo sapiens, UniProt P45974)
Sequence of UniProt P45974 (whole entry, looked up): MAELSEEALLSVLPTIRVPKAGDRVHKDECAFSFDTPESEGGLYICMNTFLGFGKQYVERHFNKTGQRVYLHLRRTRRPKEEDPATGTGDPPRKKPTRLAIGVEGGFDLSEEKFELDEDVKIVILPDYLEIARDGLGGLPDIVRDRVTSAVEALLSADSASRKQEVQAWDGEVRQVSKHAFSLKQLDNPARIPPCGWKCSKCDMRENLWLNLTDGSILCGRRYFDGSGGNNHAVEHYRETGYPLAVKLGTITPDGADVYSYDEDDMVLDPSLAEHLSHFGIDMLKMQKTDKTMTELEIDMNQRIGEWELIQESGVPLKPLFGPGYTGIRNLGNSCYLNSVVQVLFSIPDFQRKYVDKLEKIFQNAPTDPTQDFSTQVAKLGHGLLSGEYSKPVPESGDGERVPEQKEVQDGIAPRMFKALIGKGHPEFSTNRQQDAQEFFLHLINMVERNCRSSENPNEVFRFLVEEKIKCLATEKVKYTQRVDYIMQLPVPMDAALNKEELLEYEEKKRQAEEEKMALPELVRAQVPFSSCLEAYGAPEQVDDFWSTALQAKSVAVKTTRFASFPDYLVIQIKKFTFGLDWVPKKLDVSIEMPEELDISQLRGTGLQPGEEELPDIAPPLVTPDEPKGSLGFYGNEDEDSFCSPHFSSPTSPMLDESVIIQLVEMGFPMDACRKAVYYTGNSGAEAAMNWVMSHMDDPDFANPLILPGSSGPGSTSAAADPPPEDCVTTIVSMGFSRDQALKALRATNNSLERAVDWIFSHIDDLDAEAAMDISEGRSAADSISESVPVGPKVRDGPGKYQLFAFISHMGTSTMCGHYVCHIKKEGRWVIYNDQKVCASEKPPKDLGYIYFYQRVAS
Tumor necrosis factor receptor superfamily member 1A extracellular domain: Tumor necrosis factor receptor superfamily member 1A, extracellular domain (Homo sapiens, UniProt P19438)
Sequence of UniProt P19438 (whole entry, looked up): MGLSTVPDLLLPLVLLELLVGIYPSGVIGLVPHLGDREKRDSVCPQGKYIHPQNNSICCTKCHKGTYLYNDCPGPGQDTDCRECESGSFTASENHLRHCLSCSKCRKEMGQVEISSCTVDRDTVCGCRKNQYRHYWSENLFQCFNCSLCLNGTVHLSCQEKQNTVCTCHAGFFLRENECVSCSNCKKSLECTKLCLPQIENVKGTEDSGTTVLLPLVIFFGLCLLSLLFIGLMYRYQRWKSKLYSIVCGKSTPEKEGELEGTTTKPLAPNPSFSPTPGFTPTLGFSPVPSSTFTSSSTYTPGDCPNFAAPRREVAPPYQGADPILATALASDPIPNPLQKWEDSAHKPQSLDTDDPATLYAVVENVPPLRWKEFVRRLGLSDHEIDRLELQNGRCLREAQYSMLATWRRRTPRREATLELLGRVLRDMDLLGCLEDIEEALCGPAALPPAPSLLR
GATD3: Glutamine amidotransferase-like class 1 domain-containing protein 3, mitochondrial (GATD3, Homo sapiens, UniProt P0DPI2)
Sequence of UniProt P0DPI2 (whole entry, looked up): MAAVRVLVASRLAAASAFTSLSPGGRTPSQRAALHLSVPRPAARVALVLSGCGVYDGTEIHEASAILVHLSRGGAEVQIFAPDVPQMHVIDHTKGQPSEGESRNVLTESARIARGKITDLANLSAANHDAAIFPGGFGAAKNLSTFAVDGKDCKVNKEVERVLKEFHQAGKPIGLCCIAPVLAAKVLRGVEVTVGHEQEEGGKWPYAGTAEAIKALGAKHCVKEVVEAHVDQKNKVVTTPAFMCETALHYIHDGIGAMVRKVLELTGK
Sequence of UniProt Q9UQL6 (whole entry, looked up): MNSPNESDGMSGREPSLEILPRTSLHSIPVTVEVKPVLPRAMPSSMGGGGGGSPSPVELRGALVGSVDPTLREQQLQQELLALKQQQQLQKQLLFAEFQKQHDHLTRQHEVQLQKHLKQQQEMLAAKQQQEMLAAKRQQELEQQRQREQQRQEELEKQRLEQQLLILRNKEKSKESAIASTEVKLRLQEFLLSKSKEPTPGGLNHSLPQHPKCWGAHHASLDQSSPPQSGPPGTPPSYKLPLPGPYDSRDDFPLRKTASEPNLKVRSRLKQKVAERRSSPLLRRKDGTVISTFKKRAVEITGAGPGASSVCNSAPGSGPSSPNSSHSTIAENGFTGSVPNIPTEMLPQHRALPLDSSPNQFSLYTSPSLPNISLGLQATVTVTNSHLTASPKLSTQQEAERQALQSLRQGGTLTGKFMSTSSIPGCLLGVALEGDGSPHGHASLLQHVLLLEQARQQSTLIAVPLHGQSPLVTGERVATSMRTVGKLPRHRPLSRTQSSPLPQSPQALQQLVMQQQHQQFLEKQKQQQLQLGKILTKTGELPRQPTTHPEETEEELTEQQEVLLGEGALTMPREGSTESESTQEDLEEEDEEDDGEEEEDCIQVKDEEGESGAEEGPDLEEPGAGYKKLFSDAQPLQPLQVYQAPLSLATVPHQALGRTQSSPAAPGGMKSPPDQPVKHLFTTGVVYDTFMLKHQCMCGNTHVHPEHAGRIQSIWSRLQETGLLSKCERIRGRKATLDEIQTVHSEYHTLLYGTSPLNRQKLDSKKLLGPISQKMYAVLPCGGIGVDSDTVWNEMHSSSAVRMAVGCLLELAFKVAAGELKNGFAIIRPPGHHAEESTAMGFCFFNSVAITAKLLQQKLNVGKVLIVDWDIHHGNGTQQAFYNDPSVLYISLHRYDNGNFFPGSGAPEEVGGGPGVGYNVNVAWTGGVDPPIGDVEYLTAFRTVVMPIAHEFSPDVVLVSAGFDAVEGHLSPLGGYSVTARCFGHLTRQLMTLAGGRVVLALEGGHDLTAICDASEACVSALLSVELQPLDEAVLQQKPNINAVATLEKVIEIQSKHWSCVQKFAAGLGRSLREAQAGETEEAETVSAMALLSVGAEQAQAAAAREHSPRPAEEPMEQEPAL

Cn1cc(CNCC2CCN(c3ncc(C(=O)NO)cn3)CC2)c2ccccc21  Kd (Histone deacetylase 5 (HDAC5, Homo sapiens, UniProt Q9UQL6); inhibitor, competition pulldown; SW620 and MV4-11 lysate; 1 h): 0.295 µM
O=C(O)CCn1cccn1  Kd (USP5 ZnF-UBD domain): > 1000 µM
CS(=O)(=O)NC(=O)c1cc(-c2ccc(F)cc2)ccn1  Kd (Tumor necrosis factor receptor superfamily member 1A extracellular domain; binding, SPR OneStep): 1200 ± 50 µM
O=C(O)CNc1ccc2nncn2n1  Kd (USP5 ZnF-UBD domain): > 1000 µM
CN(C)Cc1c(C(=O)NCCOc2ccc(C(=O)NO)cc2)oc2ccccc12  Kd (GATD3; inhibitor, competition pulldown; SW620 and MV4-11 lysate; 1 h): > 30.2 µM
Nc1nc(CC(=O)O)cs1  Kd (USP5 ZnF-UBD domain): > 1000 µM
CCCCc1nc2cc(/C=C/C(=O)NO)ccc2n1CCN(CC)CC  Kd (GATD3; inhibitor, competition pulldown; SW620 and MV4-11 lysate; 1 h): > 30.2 µM
O=C(O)c1cc(-c2ccc3[nH]ccc3c2)cc(CO)n1  Kd (Tumor necrosis factor receptor superfamily member 1A extracellular domain; binding, SPR OneStep): 445 ± 29 µM
Cn1cc(-c2ccc(-c3cncc(Cl)c3N3CCC4(CCNC4=O)CC3)cc2)cn1  fold change in expression (COLO 205; microarray, refers to: LCN2; concentration not given, 6 h, gene set NGAL; relative to: untreated cells): 2.11
Nc1ccc(-c2ccnc(C(=O)O)c2)cc1  Kd (Tumor necrosis factor receptor superfamily member 1A extracellular domain; binding, SPR OneStep): 969 ± 39 µM
C=CC(=O)N1CCN(c2nc(OC[C@@H]3CCCN3C)nc3c(F)c(-c4nc(N)cc(C)c4C(F)(F)F)c(Cl)cc23)[C@@H](C)C1  Kd (GTPase KRas, GDP-bound (KRAS, Homo sapiens, UniProt P01116, G12D); SPR): 10.5 ± 1.8 µM
